Assay results of several laboratories.
Every numbered part comes from another study and shows a few of its results, in no order. Substitutions count along the parent as printed.

Set 1
Target: CCNB3, cyclin fold, Cln2 fusion (human)
Technique: yeast growth competition, sequencing
Sample: yeast
Setting: weak parent motif
Baseline: not given
Reading: higher = stronger binding
Measurement: normalised enrichment score
Parent: WEE1 docking peptide (human); HKTFRKLRLFDTP
H1K: 0.119
D11M: 0.271
F10D: -0.37
K6R: 0.255
R8P: 0.048

Set 2
Target: Sal-like protein 4, full length isoform B (SALL4, Homo sapiens, UniProt Q9UJQ4-2, residues 1-616)
Technique: universal PBM
Molecule type: double-stranded DNA, one strand shown
Sample: in vitro
Tested at: not given
Setting: 8-mer, flanks averaged, mean of replicates
Reading: higher = stronger binding
Measurement: E-score
Construct (chain): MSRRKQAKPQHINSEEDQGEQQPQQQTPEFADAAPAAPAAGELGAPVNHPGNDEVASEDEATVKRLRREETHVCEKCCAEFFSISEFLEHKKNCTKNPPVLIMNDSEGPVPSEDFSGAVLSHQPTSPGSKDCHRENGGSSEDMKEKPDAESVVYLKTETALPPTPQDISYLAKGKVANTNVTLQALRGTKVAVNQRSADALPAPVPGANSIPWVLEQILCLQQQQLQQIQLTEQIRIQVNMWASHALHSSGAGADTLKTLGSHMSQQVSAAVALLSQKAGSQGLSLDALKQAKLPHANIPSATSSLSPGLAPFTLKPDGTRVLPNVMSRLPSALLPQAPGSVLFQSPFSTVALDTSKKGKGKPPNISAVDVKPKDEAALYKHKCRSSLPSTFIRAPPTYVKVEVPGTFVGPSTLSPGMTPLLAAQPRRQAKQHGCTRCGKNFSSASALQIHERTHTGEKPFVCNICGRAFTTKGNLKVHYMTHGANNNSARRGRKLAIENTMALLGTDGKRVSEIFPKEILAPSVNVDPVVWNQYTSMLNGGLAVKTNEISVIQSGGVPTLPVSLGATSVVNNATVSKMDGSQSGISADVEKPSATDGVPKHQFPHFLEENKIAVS
CGCAGTTA: 0.0374
ACCGCACA: -0.217
AGGAGTTG: 0.00223
GTCGGCTA: -0.113
CGGAAAAG: -0.132
ACACTATG: 0.125

Set 3
Target: Histone acetyltransferase KAT6A, both winged helices, GST fusion (KAT6A, Homo sapiens, UniProt Q92794, residues 1-181)
Technique: protein binding microarray
Molecule type: double-stranded DNA, one strand shown
Sample: in vitro
Tested at: not given
Setting: 8-mer, flanks averaged, mean of 2 arrays, mostly near background
Baseline: not given
Reading: higher = stronger binding
Measurement: E-score
Residues (chain): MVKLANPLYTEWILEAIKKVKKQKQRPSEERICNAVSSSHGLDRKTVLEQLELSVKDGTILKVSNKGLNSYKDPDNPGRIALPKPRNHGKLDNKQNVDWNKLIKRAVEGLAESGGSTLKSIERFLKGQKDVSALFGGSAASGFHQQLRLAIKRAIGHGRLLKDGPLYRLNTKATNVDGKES
ACGATGCG: 0.161
CTATAAAA: -0.0879
CGACCCTA: -0.123
ACCCCCCA: -0.369
TAAGGTCA: -0.166

Mixed results
PhoQ, residues 284 288 289 292 302 303 TLMATV
fold induction (PhoP, residues 12 14 15 18 19 LWHVM (Escherichia coli, UniProt P23836); Sort-seq, measured: YFP reporter; E. coli; PhoQ-PhoP variant library, added: 10 µM Mg2+; baseline: high Mg2+ state, higher = stronger signaling): 11.8

Repeated from above (set 3):
ACCCCCCA: -0.369
TAAGGTCA: -0.166
